Results collected from several papers.
Parts stem from different laboratories: compare values within a part only.
Sequence of UniProt P42336 (whole entry, unmodified, looked up): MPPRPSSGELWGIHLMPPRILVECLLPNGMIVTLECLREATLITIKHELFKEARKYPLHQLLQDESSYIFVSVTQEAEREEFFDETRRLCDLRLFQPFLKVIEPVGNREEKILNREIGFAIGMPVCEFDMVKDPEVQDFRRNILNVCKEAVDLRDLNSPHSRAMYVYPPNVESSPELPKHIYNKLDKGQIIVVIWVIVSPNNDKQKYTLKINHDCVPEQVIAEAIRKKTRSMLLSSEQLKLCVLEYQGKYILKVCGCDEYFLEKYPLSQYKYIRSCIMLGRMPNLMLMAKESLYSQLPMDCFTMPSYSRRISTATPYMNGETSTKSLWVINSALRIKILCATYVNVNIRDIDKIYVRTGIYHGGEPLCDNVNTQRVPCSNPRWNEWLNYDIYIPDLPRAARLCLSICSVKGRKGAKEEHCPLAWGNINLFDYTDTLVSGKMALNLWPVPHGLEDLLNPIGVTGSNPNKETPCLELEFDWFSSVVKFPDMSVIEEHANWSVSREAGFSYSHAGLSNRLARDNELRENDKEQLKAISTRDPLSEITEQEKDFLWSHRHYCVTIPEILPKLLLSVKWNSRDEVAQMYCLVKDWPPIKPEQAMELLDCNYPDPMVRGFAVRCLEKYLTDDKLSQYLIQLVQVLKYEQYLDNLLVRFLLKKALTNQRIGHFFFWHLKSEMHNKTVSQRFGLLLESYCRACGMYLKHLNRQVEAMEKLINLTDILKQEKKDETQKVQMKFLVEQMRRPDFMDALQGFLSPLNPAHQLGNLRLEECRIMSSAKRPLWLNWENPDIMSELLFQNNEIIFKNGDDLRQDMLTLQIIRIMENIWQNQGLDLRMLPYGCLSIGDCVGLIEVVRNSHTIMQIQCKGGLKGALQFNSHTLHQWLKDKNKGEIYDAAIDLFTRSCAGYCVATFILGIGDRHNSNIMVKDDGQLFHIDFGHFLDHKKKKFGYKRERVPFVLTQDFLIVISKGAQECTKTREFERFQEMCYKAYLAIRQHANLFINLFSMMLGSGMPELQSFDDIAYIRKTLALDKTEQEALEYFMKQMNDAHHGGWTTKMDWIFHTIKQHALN
Sequence of UniProt P45984 (whole entry, looked up): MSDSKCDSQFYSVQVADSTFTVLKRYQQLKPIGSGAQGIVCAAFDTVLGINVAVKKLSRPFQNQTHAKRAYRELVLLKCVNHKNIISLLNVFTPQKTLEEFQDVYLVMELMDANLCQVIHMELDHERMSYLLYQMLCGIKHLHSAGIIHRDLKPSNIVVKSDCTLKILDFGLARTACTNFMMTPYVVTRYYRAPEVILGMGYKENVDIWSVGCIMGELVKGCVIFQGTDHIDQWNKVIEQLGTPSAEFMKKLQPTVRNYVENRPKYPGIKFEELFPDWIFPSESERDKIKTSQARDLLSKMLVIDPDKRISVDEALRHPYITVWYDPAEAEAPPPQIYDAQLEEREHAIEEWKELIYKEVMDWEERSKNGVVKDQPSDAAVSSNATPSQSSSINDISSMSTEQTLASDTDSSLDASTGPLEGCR
Sequence of UniProt P48729 (whole entry, looked up): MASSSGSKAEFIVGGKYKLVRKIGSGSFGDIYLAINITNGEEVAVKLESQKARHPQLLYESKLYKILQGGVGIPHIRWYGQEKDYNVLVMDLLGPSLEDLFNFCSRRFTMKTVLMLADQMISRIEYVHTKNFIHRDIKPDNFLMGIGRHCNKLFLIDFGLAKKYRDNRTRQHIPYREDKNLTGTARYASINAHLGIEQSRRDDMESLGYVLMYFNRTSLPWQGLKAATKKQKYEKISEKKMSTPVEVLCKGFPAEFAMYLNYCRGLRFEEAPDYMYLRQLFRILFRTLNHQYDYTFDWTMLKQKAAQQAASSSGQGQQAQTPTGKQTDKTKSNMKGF
Sequence of UniProt Q02779 (whole entry, looked up): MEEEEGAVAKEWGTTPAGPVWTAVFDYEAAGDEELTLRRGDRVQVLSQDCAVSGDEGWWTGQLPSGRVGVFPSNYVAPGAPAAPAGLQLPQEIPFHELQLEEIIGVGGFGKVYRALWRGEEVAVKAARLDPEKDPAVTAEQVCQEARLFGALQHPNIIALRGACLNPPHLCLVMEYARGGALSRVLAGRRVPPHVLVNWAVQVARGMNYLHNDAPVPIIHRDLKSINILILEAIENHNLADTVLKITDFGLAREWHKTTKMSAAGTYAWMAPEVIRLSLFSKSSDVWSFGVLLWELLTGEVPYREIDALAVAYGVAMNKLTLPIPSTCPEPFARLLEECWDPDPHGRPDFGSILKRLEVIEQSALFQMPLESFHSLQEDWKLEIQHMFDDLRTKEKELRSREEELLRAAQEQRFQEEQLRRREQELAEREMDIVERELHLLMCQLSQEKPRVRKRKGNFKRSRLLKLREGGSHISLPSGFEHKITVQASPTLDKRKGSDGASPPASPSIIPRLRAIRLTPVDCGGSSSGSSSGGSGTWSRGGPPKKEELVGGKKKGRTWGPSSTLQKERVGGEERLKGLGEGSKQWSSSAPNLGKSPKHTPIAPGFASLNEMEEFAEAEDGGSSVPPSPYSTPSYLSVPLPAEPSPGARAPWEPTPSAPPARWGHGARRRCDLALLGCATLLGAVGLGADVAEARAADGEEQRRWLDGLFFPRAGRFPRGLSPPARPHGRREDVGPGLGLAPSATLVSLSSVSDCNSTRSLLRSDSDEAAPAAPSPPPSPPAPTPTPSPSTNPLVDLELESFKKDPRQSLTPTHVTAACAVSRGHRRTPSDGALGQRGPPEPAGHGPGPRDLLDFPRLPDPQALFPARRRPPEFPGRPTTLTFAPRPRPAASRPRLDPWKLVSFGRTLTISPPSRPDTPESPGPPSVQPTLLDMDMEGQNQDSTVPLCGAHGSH
Sequence of UniProt O95835 (whole entry, looked up): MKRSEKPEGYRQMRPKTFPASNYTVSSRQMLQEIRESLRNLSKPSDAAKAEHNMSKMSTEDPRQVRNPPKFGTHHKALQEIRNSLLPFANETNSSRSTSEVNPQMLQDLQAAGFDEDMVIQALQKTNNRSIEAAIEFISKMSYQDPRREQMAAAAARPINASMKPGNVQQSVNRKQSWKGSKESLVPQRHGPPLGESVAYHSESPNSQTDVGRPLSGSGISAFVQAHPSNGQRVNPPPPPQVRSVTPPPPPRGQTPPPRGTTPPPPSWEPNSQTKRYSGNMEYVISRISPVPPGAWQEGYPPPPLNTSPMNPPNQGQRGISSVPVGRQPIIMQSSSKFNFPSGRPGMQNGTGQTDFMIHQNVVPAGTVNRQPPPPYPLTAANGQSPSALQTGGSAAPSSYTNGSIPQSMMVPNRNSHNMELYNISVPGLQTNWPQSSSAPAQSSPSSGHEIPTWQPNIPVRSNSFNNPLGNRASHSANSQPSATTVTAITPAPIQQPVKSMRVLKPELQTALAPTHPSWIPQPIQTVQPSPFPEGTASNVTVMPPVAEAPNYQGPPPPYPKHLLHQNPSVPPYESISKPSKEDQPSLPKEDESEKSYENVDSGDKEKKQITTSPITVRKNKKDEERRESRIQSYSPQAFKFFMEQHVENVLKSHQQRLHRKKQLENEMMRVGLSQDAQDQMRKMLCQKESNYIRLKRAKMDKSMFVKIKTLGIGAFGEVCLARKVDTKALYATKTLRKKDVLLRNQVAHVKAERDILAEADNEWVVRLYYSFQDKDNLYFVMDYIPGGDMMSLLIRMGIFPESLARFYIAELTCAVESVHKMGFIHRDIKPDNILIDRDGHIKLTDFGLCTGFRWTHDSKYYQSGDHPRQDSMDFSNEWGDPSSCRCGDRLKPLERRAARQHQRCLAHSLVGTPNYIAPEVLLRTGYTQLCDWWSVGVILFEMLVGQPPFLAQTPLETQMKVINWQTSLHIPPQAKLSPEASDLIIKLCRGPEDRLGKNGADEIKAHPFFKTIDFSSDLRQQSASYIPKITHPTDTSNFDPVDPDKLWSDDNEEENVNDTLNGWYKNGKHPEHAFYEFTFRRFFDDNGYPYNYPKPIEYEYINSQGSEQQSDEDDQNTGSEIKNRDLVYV
Sequence of UniProt P53350 (whole entry, looked up): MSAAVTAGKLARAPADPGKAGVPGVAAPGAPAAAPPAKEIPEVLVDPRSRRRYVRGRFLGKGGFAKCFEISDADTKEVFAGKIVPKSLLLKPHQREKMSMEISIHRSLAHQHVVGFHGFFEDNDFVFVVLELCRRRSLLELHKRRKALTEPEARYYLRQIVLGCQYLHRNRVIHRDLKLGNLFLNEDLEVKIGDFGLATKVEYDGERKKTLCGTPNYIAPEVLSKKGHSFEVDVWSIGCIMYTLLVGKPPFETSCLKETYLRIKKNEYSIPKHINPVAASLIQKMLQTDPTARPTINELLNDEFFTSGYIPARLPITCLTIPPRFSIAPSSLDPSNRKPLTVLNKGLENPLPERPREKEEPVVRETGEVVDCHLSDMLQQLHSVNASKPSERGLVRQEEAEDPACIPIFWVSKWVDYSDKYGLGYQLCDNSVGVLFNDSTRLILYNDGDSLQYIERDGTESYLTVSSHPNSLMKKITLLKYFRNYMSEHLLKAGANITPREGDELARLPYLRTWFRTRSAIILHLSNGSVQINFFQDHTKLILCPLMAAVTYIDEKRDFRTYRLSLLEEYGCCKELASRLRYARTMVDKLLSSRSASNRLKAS
Sequence of UniProt Q13188 (whole entry, looked up): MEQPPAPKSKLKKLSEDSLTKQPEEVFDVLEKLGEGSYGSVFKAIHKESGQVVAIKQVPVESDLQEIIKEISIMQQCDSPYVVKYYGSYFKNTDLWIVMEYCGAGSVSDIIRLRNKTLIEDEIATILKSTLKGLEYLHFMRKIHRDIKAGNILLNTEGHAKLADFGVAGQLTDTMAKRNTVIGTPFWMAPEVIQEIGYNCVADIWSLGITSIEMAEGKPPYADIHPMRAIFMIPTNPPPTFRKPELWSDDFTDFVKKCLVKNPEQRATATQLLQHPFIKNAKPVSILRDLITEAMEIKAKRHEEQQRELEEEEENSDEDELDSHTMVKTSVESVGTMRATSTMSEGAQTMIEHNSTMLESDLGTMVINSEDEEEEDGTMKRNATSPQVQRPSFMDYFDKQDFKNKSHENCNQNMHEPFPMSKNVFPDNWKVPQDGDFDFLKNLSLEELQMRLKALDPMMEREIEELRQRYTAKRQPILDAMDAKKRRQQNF

Block 1
Structure (SMILES): [2H]c1c([2H])c([C@]2([2H])CCCN2C(=O)C(C)(C)Oc2ccc3cn[nH]c3c2)c([2H])c([2H])c1C([2H])([2H])[2H]
Effect on: binding
Technique: competition with immobilised ligand
Tested at: 1 µM
Endpoint: remaining binding
MAP3K10 (Homo sapiens, UniProt Q02779): 67%
CSNK1A1 (Homo sapiens, UniProt P48729): 82%
STK3 (Homo sapiens, UniProt Q13188): 92%
MARK3 (Homo sapiens, UniProt P27448): 76%
PLK1 (Homo sapiens, UniProt P53350): 99%
EPHA4 (Homo sapiens, UniProt P54764): 62%

Further values, each from its own experiment
CNc1ncc2c(/C=C/C(=O)N3CCC(OC)CC3)nn(Cc3cccc(C(F)(F)F)c3)c2n1  remaining activity (RAF1 (Homo sapiens, UniProt P04049, Y340D/Y341D); enzyme activity, inhibitor, radiometric; 1 µM): 96%
C=CC(=O)N1CCC(COCC(=O)N2CCN(c3nc(-c4cnc(N)nc4C(F)F)nc(N4CCOC[C@@H]4C)n3)CC2)CC1  remaining binding (DYRK1A (Homo sapiens, UniProt Q13627); binding, competition with immobilised ligand; 1 µM): 85%
C1=C/COCc2cc(ccc2OCCN2CCCC2)Nc2nccc(n2)-c2cccc(c2)COC/1  remaining binding (PIK3CA (Homo sapiens, UniProt P42336, Q546K); binding; 0.1 µM): 60%
Cc1cc([C@@H](C)Nc2ccccc2C(=O)O)c2nc(N3CCC(F)(F)CC3)c(C#N)c(=O)n2c1  remaining binding (MAPK9 (Homo sapiens, UniProt P45984); binding, competition with immobilised ligand; 10 µM): 100%
COc1cc(-c2cncc3c2CN(C)Cc2cc(N4CCNCC4)ccc2-3)cc(OC)c1OC  remaining activity (LATS1 (Homo sapiens, UniProt O95835); enzyme activity, inhibitor; 1 µM): 118%
CCCCC(=O)Nc1ccc(-c2ccc3ncn(CCC)c(=O)c3c2)cn1  remaining binding (PIK3CA (Homo sapiens, UniProt P42336, H1047L); binding, competition with immobilised ligand; 0.5 µM): 100%
